Assay results collected from several papers.
Numbered parts are unrelated; each lists some results of a single study.

Block 1
Target: Interferon regulatory factor 3, full length, phosphomimetic (IRF3, Homo sapiens, UniProt Q14653, residues 1-427, S386D/S396D/S398D/S402D/T404D/S405D)
Technique: protein-binding microarray
Molecule type: double-stranded DNA, one strand shown
Medium: in vitro
Tested at: 2540 nM top
Notes: 60-bp whole probe
With: salmon DNA 0.4 mg/ml
Baseline: random background probes
Reading: higher = stronger binding
Constant ends, left off below: GCCTAGCAC … GTCTTGATTCGCTTGACGCTGCTG
Target sequence (chain): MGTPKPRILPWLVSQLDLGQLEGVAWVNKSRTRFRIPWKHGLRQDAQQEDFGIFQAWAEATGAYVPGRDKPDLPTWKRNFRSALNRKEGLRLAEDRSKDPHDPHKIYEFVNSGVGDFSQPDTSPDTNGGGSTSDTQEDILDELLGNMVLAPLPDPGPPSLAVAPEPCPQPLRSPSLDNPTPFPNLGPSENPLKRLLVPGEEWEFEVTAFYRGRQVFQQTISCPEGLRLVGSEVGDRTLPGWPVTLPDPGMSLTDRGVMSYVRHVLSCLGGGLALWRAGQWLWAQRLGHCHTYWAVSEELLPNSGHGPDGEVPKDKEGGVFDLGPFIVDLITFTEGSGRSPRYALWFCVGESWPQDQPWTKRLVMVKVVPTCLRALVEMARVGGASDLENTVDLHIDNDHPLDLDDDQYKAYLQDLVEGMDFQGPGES
Strand | fitted relative affinity
GACGATATCGGGACGGGAGACGTGCTA | 0.0242 z-score
GACGCTATCCTTCTCCTGACGTGCTAG | 4.26 z-score
TTAGACCTCAGTATCGATTAGTGCTAG | 0.336 z-score
TTATATATCGGGTATCGATTAGTGCTA | 0.671 z-score
GACGGACTGCGTATCGGGACGTGCTAG | -0.0827 z-score
GACGGTCTCCTACTCCTGACGTGCTAG | 2.07 z-score
CACCATCTAGTTCTGCTTTGGTGCTAG | 0.709 z-score
TGTGGCTTAGCTGTCACCTCGTGCTAG | -0.979 z-score
GACGGTCTCCTTATCCTTACGTGCTAG | 2.92 z-score
TTAGGTCTCCTGATCCTTTAGTGCTAG | 0.725 z-score
GACGAACTGGGGTTTCGAGCCGTGCTA | -0.299 z-score
TCAGCTCTAGGTTCTCTGACTGTGCTA | -0.466 z-score
GGCGGTTCCGGTTTCGGGACGTGCTAG | 6.34 z-score
TCACAGTTTAATATCTAACTGTGCTAG | 0.702 z-score
TTAGGTATCGGGTTTCGATTAGTGCTA | 3.25 z-score
GACGGTCTCGGACTGGGGATGTGCTAG | -0.00987 z-score

Block 2
Target: Prothrombin, mature alpha-thrombin (F2, Homo sapiens, UniProt P00734)
Technique: aptamer microarray, sandwich
Molecule type: DNA with 2'F-ANA
Medium: in vitro
Tested at: 200 nM
Notes: whole 15-mer aptamer, many near background
With: Cy3 exosite-II aptamer, 400 nM
Reading: higher = stronger binding
Strand: GGTTGGTGTGGTTGG
Modification | mean fluorescence intensity
2'F-ANA at 1 3 4 8 12 13 14 15 | 131 a.u.
2'F-ANA at 1 3 6 7 11 12 13 14 15 | 100 a.u.
2'F-ANA at 1 5 7 8 10 13 15 | 46.4 a.u.
2'F-ANA at 1 2 4 5 8 11 13 14 15 | 46.9 a.u.
2'F-ANA at 1 2 4 11 12 13 | 176 a.u.
2'F-ANA at 1 3 4 5 7 8 13 | 62.3 a.u.
2'F-ANA at 4 5 6 12 13 14 15 | 56.7 a.u.
2'F-ANA at 2 4 5 9 10 12 13 15 | 67 a.u.
2'F-ANA at 1 2 4 6 9 10 13 | 56.7 a.u.
2'F-ANA at 2 3 5 7 11 13 15 | 141 a.u.
2'F-ANA at 1 2 3 4 5 6 7 8 9 10 11 14 15 | 64.4 a.u.
2'F-ANA at 2 3 4 7 11 13 15 | 465 a.u.
2'F-ANA at 6 8 9 10 11 13 | 130 a.u.
2'F-ANA at 3 4 5 8 9 10 13 15 | 48.4 a.u.
2'F-ANA at 3 9 11 13 15 | 880 a.u.
2'F-ANA at 3 4 5 6 7 8 10 11 13 15 | 50 a.u.
2'F-ANA at 5 6 7 8 10 11 13 | 44.5 a.u.
2'F-ANA at 1 2 5 6 10 11 12 | 58.6 a.u.
2'F-ANA at 1 3 4 7 8 9 10 11 13 15 | 61 a.u.
2'F-ANA at 2 5 6 8 10 14 | 45.3 a.u.
2'F-ANA at 1 2 3 4 5 11 12 15 | 86.6 a.u.
2'F-ANA at 1 2 3 4 7 12 14 | 81.2 a.u.
2'F-ANA at 3 5 6 7 9 11 14 | 48.3 a.u.
2'F-ANA at 1 6 7 9 10 11 12 14 15 | 51 a.u.
2'F-ANA at 1 3 5 7 10 14 15 | 54.7 a.u.

Block 3
Target: RING finger protein unkempt homolog, zinc fingers 1-6, SBP tag (UNK, Homo sapiens, UniProt Q9C0B0, residues 30-357)
UniProt Q9C0B0, sequence (30-357, looked up): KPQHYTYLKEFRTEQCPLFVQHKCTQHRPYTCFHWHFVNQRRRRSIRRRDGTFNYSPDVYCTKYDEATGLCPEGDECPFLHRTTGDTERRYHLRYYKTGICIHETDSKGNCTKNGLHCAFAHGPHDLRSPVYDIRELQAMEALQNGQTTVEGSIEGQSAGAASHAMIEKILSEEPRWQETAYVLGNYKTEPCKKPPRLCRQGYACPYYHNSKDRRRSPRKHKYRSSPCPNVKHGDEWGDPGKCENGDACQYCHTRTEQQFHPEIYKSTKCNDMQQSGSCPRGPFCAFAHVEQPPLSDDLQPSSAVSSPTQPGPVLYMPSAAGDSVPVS
Technique: RNA Bind-n-Seq
Molecule type: RNA
Medium: in vitro
Tested at: 100 nM
Notes: RNA with constant flanks, vertebrate orthologous sites, ends assumed
Baseline: input RNA pool
Reading: higher = stronger binding
Constant ends, left off below: GGGAGUUCUACAGUCCGACGAUC … CAACAGAGGAUUGAGCAUCA
Strand | bound/input enrichment [ratio]
CAUUAACACACAAAAUGUCUCCAGGGGGGUAUUAGAUUUGAUUUCUUACAUAUAAAACAAAUCAACCAACCAUUUUUAAAGUAGAAGAGGUUUUUAGAUAGUAAAUGAAAUAUUCUUUUU | 1.44
CAUGAUCUUGUUACUGUGAUAUUUUAAAUAUCCACAGUACUCACUUUUUCCAAAUGAUCCUAAUAAUUGCCUAGAAAUAUCUUUCUCUUACCUGUUAUUUAUCAAUUUUUCCCAGUAUUU | 0.793
CCUACAAUAAUGAAAAUCUACAGAAAUUUUUUUAUUUUUCAUUAUCCCCUUAGGCAUAUUUAGGCUUUCUUCCCCAGGCAGAUCAUUCUGAGUGUGCGAGUGUGUGUGCACAUGUUACAA | 0.697
AAGAUACUUUAUCCUUCAGGAGAAAUACCAAUGAGCUUUUUUUUGUUUUGUGCAUUUAAUAGAAUUAUUUUAUAUUAAUUGCUUAAUUGUAUGGAGAAACAUAGUUUUGCUCUCAAUAUG | 0.24
UUACAAUCUUAUACUUAAACUGGUAUUUUCAAACAAUAGCAAACUUUUUUUUUUACAGUUUAGUGUAUUUGGUUUCUACAUGGAAGACUAAACUCAUGCUUAUUGCUAAAACGUGGUCUU | 0.674
UUUUAUUGAUCAGGUCUGUAAAUGUGUACUAAAAAAAUCAGAGUUUAUUUAUAAACAGAAUAGUUUAUUUAAAGAGAAGUUCUUUUCCUUAUUGAUAUCAUGGUAUGCAUUAAUUCCAUU | 0.176
AAAUUUAUUUCAUGCCCUGGACUCCCUACCGUACUGAUACUUUGAUUGAGUAUGCUUCUUUAGAAGAUUUCCAAAACAGUCGCCAAACAACAACAUAUAAACUUCCAAAUCGAGUAGAUG | 0.778
UCACUCUGAUAGGAGUGGGUUGUUAUUCGUUUUUUCUUUUCUUUUUUUUUACAUUUUGUAUAGAAACAAAUUCAUUUAAACAAACUUAUUAUUAUUAUUUUUUACAAAAUAUAUAUAUAG | 0.538
GGUUGAUGUUUUAAAGAAUCACUUGGUAAAAGAAGGUCGGGUUGAUGAAGAAAUUGCACUUAGAAUUAUUAAUGAGGGCGCUGCCAUCCUUCGGAGAGAGAAAACUAUGAUAGAAGUAGA | 1.16
UUUGAGGAGGGAGAAAGACAAGUUUCUUCUCUCUUUAAAGUAAAACUGAAAUAGUUUUCUUUUAUUUCUGUCUUGGAAAACAAAGAUGGCCUAUUCUCUUAACUGUGUUACAAUACCAUC | 0.235
AUCCCUCAGUGACAGCAUGCCGUCUGUAGCAGAUUCCCACUCCAGUCAUUUUUCUGAAUUUAGCUGCUCAGACUUAGAAAGCAUGAGAACGUCCUGUAGUCACGGCUCCAGUGAUUGCCA | 0.351

Block 4
Target: RNA binding protein fox-1 homolog 2, RRM domain, GST-SBP tag (RBFOX2, Homo sapiens, UniProt O43251-10, residues 100-194)
Technique: RNA Bind-n-Seq
Molecule type: RNA
Medium: in vitro
Tested at: 365 nM
Notes: natural RNA segment, single round, ends assumed
Baseline: no-protein control
Reading: higher = stronger binding
Constant ends, left off below: GGGAGUUCUACAGUCCGACGAUC … UGGAAUUCUCGGGUGCCAA
Construct (chain): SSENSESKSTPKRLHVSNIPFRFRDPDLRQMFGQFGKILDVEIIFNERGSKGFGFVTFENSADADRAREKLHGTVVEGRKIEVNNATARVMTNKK
Strand | RBNS enrichment (R)
UGGAGCUUUCCUCUUGGAACAGUUAACCGAAGACCCUCAUGGGCAAGGACAUCCGCUUGACUCCCCACUCACCAUCAGGCCACACUUUUAAAGAAAAAUUGUUCUCUAAC | 0.308
GAGCUCUGGCCUAGGGACCUUGCCGCUGACCAAGAGGGAGGACCAGUGCAGGGUCUGUGCACCUUCCCUGCUGGCCUGCACACAGCUGCUCAGCACCACUUUCAUUCUGG | 0.451
UGUGCAAAAACAUGGAAAAUUGUCACUGACUUUGUUUUGAGGUUUCCCCCAUUUUGCUGCCUUUUGGGACACUUCGUUAAAUACUGGUCUUGGCUGCAUUCUUUUUUUUU | 0.909
AUUUUCUUUGGCAUCUCUUUGCCCUUUCCUCUGGAGUCUUUCUUGAGUACUGAUUUCAUGUUGAAUUGUAUCCCACACAUCAUGGUCUGCAGCUUCUUUUUCACAUGUAG | 0.386
GUGGCUCUGAGGCCUAGGCAACGAGCGACAGGGCUGCCAGUUGCCCCUGGGUUCCUUUGUGCUGCUGUGUGCCUCCUCUCCUGCCGCCCUUUGUCCUCCGCUAAGAGACC | 0.325
CUCAGCCUCAGUGUCCCGAGGGCCCCGAAGCAUUCCAUUCUCGUGGAGGAGUUUCCUUGCUGAGAUUUCAAAUAGUCCUCCCCACCUCAACUGUCACCACUGCUAAGGGA | 0.311
CACCUGCAUUGCCUCACCAGUGUAUUUAUUUGUUAUUAAAUUGAUCUGACUUCUCAGCCUCAUUUGGACUAAAAAAAGAAAGCAGAAAUCCAUGAACACAUUGCUUCUCG | 0.772
CAUGUAAGCAGCAAAGGGGCGUAAGUAGCCACGAGGCACCUCGCAUGCCUUCUUCAGUGGCUGAGGGAUGACAAGCAGGACUUCCUGAGAGUCAGUCUGAAGAGAACACA | 1.19
GAAGGGUCUUCACUCUGCCAUUCAGGGAUAAAGUUUAAUUUUAUUUUUCUACACAUUUUGCCAGGUCAGGCAUUUUGCUAGUAAGCAGGAUGCCCCCAACUCUCCCUGCC | 0.26
AGCAAACUAUCUUUGAGUCAAAAAAAGUUGGAUAACUCAUCUAUAUUUGAAAUAAUGCUGUCUGAAUGGCCAACAUCCCAAGAAUGUAUUAAAAACAGCAACCCUGCCUA | 1.63
AUAAGGAGGAAAACCAAAACCCCAAGCACCCAUUAAACAAGUCCUGGCAGGACUCACAGGAACAAACGAGGUCCCUGUUAGGGUUCUACUCGGGGGAGGGAGGGGGCUCC | 0.299
UUCUCUCUUCCCUUGAUCUUCCUUGGCCUGGCCCAUUCUGCUCUUUACAGUGCCAGAUAUUUAUACAUCAUAAACUUAGGAAAUGCCUAAAAGAGCCUAAGCAGGAAAAA | 0.326

For quick reference, copied from above (block 2):
Modification | mean fluorescence intensity
2'F-ANA at 1 2 4 6 9 10 13 | 56.7 a.u.
2'F-ANA at 1 3 4 8 12 13 14 15 | 131 a.u.
2'F-ANA at 1 5 7 8 10 13 15 | 46.4 a.u.
2'F-ANA at 1 2 3 4 5 6 7 8 9 10 11 14 15 | 64.4 a.u.
2'F-ANA at 5 6 7 8 10 11 13 | 44.5 a.u.
2'F-ANA at 1 2 4 11 12 13 | 176 a.u.
